Earlier results that unrelated publications cite.
≈ marks a conversion by molar mass, not a printed value.
UniProt Q9HBH9, sequence (whole entry, looked up): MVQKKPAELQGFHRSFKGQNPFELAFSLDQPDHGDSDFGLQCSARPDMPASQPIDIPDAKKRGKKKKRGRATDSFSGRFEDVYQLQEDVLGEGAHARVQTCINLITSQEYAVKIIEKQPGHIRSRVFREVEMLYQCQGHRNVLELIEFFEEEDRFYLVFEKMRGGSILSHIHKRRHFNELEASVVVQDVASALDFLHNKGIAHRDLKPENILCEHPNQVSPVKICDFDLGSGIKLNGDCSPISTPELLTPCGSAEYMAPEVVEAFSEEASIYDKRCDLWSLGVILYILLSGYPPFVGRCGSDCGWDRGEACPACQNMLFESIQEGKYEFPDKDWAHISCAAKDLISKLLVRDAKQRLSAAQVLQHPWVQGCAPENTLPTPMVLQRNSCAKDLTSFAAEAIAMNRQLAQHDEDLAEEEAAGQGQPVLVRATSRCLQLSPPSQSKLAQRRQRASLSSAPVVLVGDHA

CCC(CC)C(=O)O
IC10 (mouse D3 embryonic stem cells; cell viability; unbound medium concentration): 2000 µM

CC(=O)O[C@H]1C(=O)[C@@]2(C)[C@H]([C@H](OC(=O)c3ccccc3)[C@]3(O)C[C@H](OC(=O)[C@H](O)[C@@H](NC(=O)c4ccccc4)c4ccccc4)C(C)=C1C3(C)C)[C@]1(OC(C)=O)CO[C@@H]1C[C@@H]2O
IC50 (NCI/ADR (Pgp+ drug-resistant); cytotoxicity): 0.13 µM

CCCC(C)C(=O)O (stereo not shown)
IC10 (mouse D3 embryonic stem cells; cell viability; unbound medium concentration): 2600 µM

CC(=O)Nc1ccc(O)cc1
Vmax (CYP1A2; substrate): 0.432 pmol/min/pmol

COc1ccc(NS(=O)(=O)c2cc(NC(=O)Cn3ccccc3=O)ccc2N2CCCCC2)cc1
IC50 (Plasmodium falciparum; whole cell extended time; 3D7; 72 h): 0.7 µM

C=CCCC(=O)O
IC10 (mouse D3 embryonic stem cells; cell differentiation, inhibitor; unbound medium concentration): 71 µM

CNC(C)C1CCC(N)C(OC2C(N)CC(N)C(OC3OCC(C)(O)C(NC)C3O)C2O)O1 (stereo not shown)
MIC (Escherichia coli; clinical isolate RKI-No_515/16): 2 µg/mL (≈ 4.19 µM)

NNC(=O)c1ccncc1
Ames mutagenicity (Salmonella enterica serovar Typhimurium; Ames test; concentration not given): positive

CC1(C)S[C@@H]2[C@H](NC(=O)[C@H](N)c3ccccc3)C(=O)N2[C@H]1C(=O)O
MIC (Escherichia coli; clinical isolate RKI-No_593/16): > 16 µg/mL

Cc1cc(-c2nccc3c2ccn3CC(=O)Nc2ccc(-c3cnccn3)cn2)ccn1
Ames test result (bacteria; concentration not given, genotoxicity): negative

CNCc1cc(-c2ccccc2F)n(S(=O)(=O)c2cccnc2)c1
AUC(0-inf) (human; 40 mg, multiple dose): 472 ng·h/mL

CCCC(C)(C)C(=O)O
EC10 (human neural embryonic cells; cell viability; unbound medium concentration): 1160 µM

Cn1c(Cn2ccc(C(F)(F)F)c(Oc3cc(Cl)cc(C#N)c3)c2=O)n[nH]c1=O
Fatigue incidence (human subjects; up to 48 weeks): 8.1%

CN(C)C(=O)c1cc2cnc(Nc3ccc(N4CCNCC4)cn3)nc2n1C1CCCC1
oral bioavailability (cynomolgus monkey): 17%

CO[C@H]1C[C@@H]2CC[C@@H](C)[C@@](O)(O2)C(=O)C(=O)N2CCCC[C@H]2C(=O)O[C@H]([C@H](C)C[C@@H]2CC[C@@H](O)[C@H](OC)C2)CC(=O)[C@H](C)/C=C(\C)[C@@H](O)[C@@H](OC)C(=O)[C@H](C)C[C@H](C)/C=C/C=C/C=C/1C
fraction unbound in microsomal incubation (recombinant human CYP3A5): 0.43

COCCc1ccc(OCC(O)CNC(C)C)cc1 (stereo not shown)
AUC(0-24 h) (human fasted; 100 mg multiple doses, day 7, mean): 650 ng·h/mL

CC[C@H]1OC(=O)[C@H](C)[C@@H](O[C@H]2C[C@@](C)(OC)[C@@H](O)[C@H](C)O2)[C@H](C)[C@@H](O[C@@H]2O[C@H](C)C[C@H](N(C)C)[C@H]2O)[C@](C)(OC)C[C@@H](C)C(=O)[C@H](C)[C@@H](O)[C@]1(C)O
Ki (SLCO1B1; inhibitor; Simcyp compound file): 0.35 µM

Nc1cc(C(F)(F)F)c(-c2nc(N3CCOCC3)nc(N3CCOCC3)n2)cn1
remaining activity (MKNK2 (Homo sapiens, UniProt Q9HBH9); enzyme activity; 10 µM; reference: untreated): 91%

CCCCCCCCc1c(C)[nH]c(C)c(Cl)c1=O
IC50 (Plasmodium falciparum; whole cell extended time; 3D7; 72 h): 0.23 µM

Some of these lines once more:
CN(C)C(=O)c1cc2cnc(Nc3ccc(N4CCNCC4)cn3)nc2n1C1CCCC1
oral bioavailability (cynomolgus monkey): 17%

CCCC(C)(C)C(=O)O
EC10 (human neural embryonic cells; cell viability; unbound medium concentration): 1160 µM
